# Earlier results that unrelated publications cite.
# ± gives the spread as reported.
SMILES,target or system,assay,system,setting,how to read,measurement,result
O=C1NCC(Cc2ccccc2)N(CC2CCCN2CC(CC2CCCCC2)N2CC(Cc3ccc(O)cc3)N(CCc3ccccc3)C(=O)C2=O)C1=O (stereo not shown),B16-F10,viability,,,,IC50,3 ± 0.2 µM
CC(=O)OC1C2C3CCC(C(C)(O)C4CC(C)=C(C)C(=O)O4)C3(C)CCC2C2(C)C(=O)C=CC(O)C23OC13 (stereo not shown),Col2,cell growth,,,,IC50,0.14 µM
Cc1ccc(C(C)C)cc1.O=C(N=P(c1ccccc1)(c1ccccc1)c1ccccc1)c1ccccn1.[Cl-].[Cl][Ru+],patient-derived renal proximal tubular cells,cytotoxicity,,,,IC50,13.8 ± 1.46 µM
Oc1cccc(-c2cccc(O)n2)n1.[Cl-].[Cl-].[Ru+2].c1cnc2c(c1)c1c(c3cccnc32)OCCO1.c1cnc2c(c1)c1c(c3cccnc32)OCCO1,MDA-MB-231,cell viability,,dark,,IC50,190 µM
CCC1=C(O)c2c(oc(-c3cc4ccccc4s3)cc2=O)C(CC)(CC)C1=O,KB,"cell growth, SRB",,,,IC50,11.2 µM
N=C(N)NCCC[C@@H]1NC(=O)[C@H](CCCCNC(=O)CCOCCOCCOCCOCCNC(=O)CC[C@H](NC(=O)CCOCCOCCOCCOCCNC(=O)CN2CCN(CC(=O)O)CCN(CC(=O)O)CCN(CC(=O)O)CC2)C(=O)NCCOCCOCCOCCOCCC(=O)NCCCC[C@@H]2NC(=O)[C@@H](Cc3ccccc3)NC(=O)[C@H](CC(=O)O)NC(=O)CNC(=O)[C@H](CCCNC(=N)N)NC2=O)NC(=O)[C@@H](Cc2ccccc2)NC(=O)[C@H](CC(=O)O)NC(=O)CNC1=O [indium-111 labelled],,,"athymic nude mice, U-87 MG glioma xenograft, tumour",72 h post-injection,,tumour uptake,2.18 %ID/g
Oc1cccc(-c2cccc(O)n2)n1.[Cl-].[Cl-].[Ru+2].c1cnc2c(c1)ccc1cccnc12.c1cnc2c(c1)ccc1cccnc12,HeLa,cell viability,,"added: blue light 450 nm, 1 h",,IC50,383 µM
Cc1ccc(C2C3=C(COC3=O)NC3=C2C(=O)c2ccccc2C3=O)cc1 (stereo not shown),MCF7 cells,cell growth,,,,IC50,> 2.5 µM
C=CC(=O)N(c1cccc2ccccc12)S(=O)(=O)c1ccc(OC)cc1,HCT-116,cell growth,,,,IC50,3.04 µM
CC(C)=CCC[C@@H](C)[C@H]1C[C@H](O)[C@@]2(C)C3=CC[C@H]4C(C)(C)[C@@H](O)CC[C@]4(C)C3=CC[C@]12C,NCI-H187,cell growth,,,,IC50,45.5 µM
CCNc1cc2c(cc1C)C1(c3cc(C)c(NCC)cc3O2)c2ccccc2C(=O)N1N=Cc1ccnc(-c2cc(C)ccn2)c1.Cc1c(C)c(-c2ccc(-c3ccccc3)cc2)[c-](C)c1C.F[P-](F)(F)(F)(F)F.[Cl-].[Ir+3],BEAS-2B,,,concentration not given,,IC50,3 ± 0.2 µM
CCC1=C(O)c2c(oc(-c3ccc4cc(OC)ccc4c3)cc2=O)C(CC)(CC)C1=O,KB,"cell growth, SRB",,,,IC50,10.8 µM
CN1C(=O)[C@@H](Cc2ccc(O)cc2)NC(=O)CNC(=O)[C@H](Cc2ccc3ccccc3c2)NC(=O)[C@H](CCCNC(=N)N)NC(=O)[C@H]1CCCNC(=O)c1ccc(CNC(=O)CN2CCN(CC(=O)O)CCN(CC(=O)O)CCN(CC(=O)O)CC2)cc1 [gallium-68 labelled],,PET dosimetry,"human patients, kidneys",,,absorbed dose coefficient,0.035 mGy/MBq
C/C(=N\NC(=O)c1ccc([N+](=O)[O-])cc1)c1ccc(NC(=O)c2cccnc2)cc1,HCT-116,,,,,IC50,4.05 µM
[Cl-].[Cl-].[Ru+2].c1ccc(-c2ccccn2)nc1.c1ccc(-c2ccccn2)nc1.c1cnc2c(c1)ccc1cccnc12,Caco-2,,,light irradiation,,IC50,> 100 µM
Cc1ccccc1-c1cc(N2CC[N+](C)([O-])CC2)ncc1N(C)C(=O)C(C)(C)c1cc(C(F)(F)F)cc(C(F)(F)F)c1,,,"healthy volunteers, plasma","oral, 300 mg, fasted, fixed-dose combination, added: palonosetron 0.5 mg",,AUC(0-inf),2250 ng·h/mL
FC(F)(F)c1ccc2nc3c4cccnc4c4ncccc4c3nc2c1.[Cl-].[Cl-].[Ru+2].c1ccncc1.c1ccncc1.c1ccncc1.c1ccncc1,L-O2,phototoxicity,,light irradiation,,IC50,29.3 ± 1.5 µM
CC1=C(C)C(=O)OC(C(C)(O)C2CCC3C4CC5OC56C(O)C=CC(=O)C6(C)C4CC(O)C32C)C1 (stereo not shown),bone marrow cells,,,,,IC50,9.71 µM
CC[C@H](C)[C@@H]1NC(=O)[C@H](Cc2c[nH]c3ccccc23)NC(=O)[C@H](C)NC(=O)[C@H](C(C)C)NC(=O)[C@H](CC(C)C)NC(=O)[C@H](Cc2c[nH]c3ccccc23)NC1=O,CT26 (mouse),,,,,IC50,12 µM
O=C1OCC2=C1C(c1cccc([N+](=O)[O-])c1)C1=C(N2)C(=O)c2ccccc2C1=O (stereo not shown),HepG2 cells,cell growth,,,,IC50,< 0.039 µM
N=C(NO)NN=Cc1nccc2c([N+](=O)[O-])cccc12,CCRF-CEM,cell growth,,,,IC50,3 µM
CCC(=O)O[C@@H]1[C@@H](OC(C)=O)C2=C(C(=O)C(O)=C(C(C)C)C2=O)[C@@]2(C)CCCC(C)(C)[C@H]12,MEL1,,,,,GI50,5 to 10 µM
C[C@@H](Nc1c(-c2c(F)cc(C#CCCN(C)C)cc2F)c(Cl)nc2ncnn12)C(C)(C)C,HEK293,,,"10 µM, 4 h, unit not given",relative to: vehicle (DMSO),acetylated α-tubulin level,6.94 ± 0.22
CC(=O)O[C@H]1C2=C(C(=O)C(O)=C(C(C)C)C2=O)[C@@]2(C)CCCC(C)(C)[C@@H]2[C@@H]1OC(=O)c1ccc([N+](=O)[O-])cc1,MCF7,cell growth,,,,GI50,5 to 10 µM
CC(=O)OCC12C(=O)C=CC(OC(C)=O)C13OC3CC1C3CCC(C(C)C4CC(C)=C(C)C(=O)O4)C3(C)CCC12 (stereo not shown),Hs-578T,cell growth,,,,IC50,0.26 µM
CC(C)(C)C1=CC(=NNC(=O)c2ccncc2)C=C(C(C)(C)C)C1=O,NR-9456 (mouse macrophages),cell viability,,,,IC50,> 100 µM
CC(=O)NCCCOc1cc(F)c(-c2c(Cl)nc3ncnn3c2N[C@@H](C)C(F)(F)F)c(F)c1,HEK293,,,"10 µM, 4 h, unit not given",relative to: vehicle (DMSO),acetylated α-tubulin level,0.99 ± 0.4
COCCOCCOCCOCCC(=O)NCc1cc(CNC(=O)CCOCCOCCOCCOC)cc(-c2cc3cc4nc(c(OC)c5[nH]c(cc6nc(cc2[nH]3)CC6(C)C)cc5-c2cc(CNC(=O)CCOCCOCCOCCOC)cc(CNC(=O)CCOCCOCCOCCOC)c2)CC4(C)C)c1,,,DMF,room temperature,,Soret (B) absorption maximum,363 nm
